Assay results pooled from the literature.
Each numbered part is a random draw from the data of one study; scales do not carry over between parts. Values joined by “and” are separate records of one study, mostly repeats; a detail may differ.
UniProt P21918, sequence (whole entry, looked up): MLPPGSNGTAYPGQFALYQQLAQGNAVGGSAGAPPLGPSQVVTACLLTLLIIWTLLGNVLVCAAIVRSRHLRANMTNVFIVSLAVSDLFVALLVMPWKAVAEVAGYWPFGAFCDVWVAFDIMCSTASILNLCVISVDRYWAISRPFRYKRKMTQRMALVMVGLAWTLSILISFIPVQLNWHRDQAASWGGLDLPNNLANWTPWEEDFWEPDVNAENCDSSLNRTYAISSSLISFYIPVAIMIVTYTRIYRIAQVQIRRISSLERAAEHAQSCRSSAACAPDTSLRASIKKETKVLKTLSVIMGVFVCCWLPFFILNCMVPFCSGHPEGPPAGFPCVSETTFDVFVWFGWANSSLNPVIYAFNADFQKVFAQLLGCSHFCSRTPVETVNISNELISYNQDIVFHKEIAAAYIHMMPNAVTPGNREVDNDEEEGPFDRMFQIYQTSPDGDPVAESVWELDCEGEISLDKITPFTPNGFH
UniProt P35372, sequence (whole entry, looked up): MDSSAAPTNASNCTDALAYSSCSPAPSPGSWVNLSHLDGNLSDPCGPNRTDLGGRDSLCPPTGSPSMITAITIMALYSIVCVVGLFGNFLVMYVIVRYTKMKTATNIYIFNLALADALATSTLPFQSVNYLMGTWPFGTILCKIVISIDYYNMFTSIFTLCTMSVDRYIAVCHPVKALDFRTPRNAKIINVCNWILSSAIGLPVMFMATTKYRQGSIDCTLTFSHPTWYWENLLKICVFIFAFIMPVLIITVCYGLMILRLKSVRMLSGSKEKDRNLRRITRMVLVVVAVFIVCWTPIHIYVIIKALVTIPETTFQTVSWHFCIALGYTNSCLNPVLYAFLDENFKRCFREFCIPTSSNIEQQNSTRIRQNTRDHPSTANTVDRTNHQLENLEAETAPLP
UniProt P31645, sequence (whole entry, looked up): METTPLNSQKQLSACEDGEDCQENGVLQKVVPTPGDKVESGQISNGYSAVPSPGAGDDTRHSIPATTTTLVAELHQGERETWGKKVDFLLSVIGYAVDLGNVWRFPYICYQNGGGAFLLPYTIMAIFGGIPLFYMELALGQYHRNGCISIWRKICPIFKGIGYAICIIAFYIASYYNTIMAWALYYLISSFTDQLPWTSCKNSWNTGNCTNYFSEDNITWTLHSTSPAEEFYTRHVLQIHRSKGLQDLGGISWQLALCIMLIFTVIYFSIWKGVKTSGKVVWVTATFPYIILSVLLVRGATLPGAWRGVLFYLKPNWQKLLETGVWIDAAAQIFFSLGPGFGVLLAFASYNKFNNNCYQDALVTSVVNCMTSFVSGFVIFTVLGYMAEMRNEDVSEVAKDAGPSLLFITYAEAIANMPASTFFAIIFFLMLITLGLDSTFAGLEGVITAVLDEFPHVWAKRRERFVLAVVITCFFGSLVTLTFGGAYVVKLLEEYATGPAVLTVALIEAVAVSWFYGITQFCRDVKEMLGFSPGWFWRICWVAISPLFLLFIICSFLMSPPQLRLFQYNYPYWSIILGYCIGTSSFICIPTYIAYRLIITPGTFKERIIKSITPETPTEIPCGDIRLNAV

Study 1 — tested at: 10 µM
SMILES: CCS(=O)(=O)c1cc2cc(C[C@](O)(CC(C)(C)c3ccc(F)cc3C(N)=O)C(F)(F)F)[nH]c2cn1
The inhibition was 7.51% (OPRM1 (Homo sapiens, UniProt P35372); ligand displacement).
The inhibition was -14.1% (SLC6A4 (Homo sapiens, UniProt P31645); cell-free assay).
DRD5 (Homo sapiens, UniProt P21918); ligand displacement — inhibition: 34.2%.

Study 2 — method: CCK-8
SMILES: CC(C)S(=O)(=O)c1cc2c(Nc3ccc4sc(C5CCCC5)nc4c3)ccnc2cc1OCCO
L929 RIPK3-/- reexpressing RIPK3 K51A/R69H; 50 µM, with: zVAD — survival: 25.1% and 23.4% and 27%.
L929 RIPK3-/- reexpressing RIPK3 K51A/R69H; 12.5 µM — survival: 85.5% and 81.6% and 79.4% and 82.8%.
The survival was 89% and 88% and 85.9% and 93% (L929 RIPK3-/- reexpressing RIPK3 K51A; 3.125 µM).
The survival was 13% and 13.3% and 11.4% and 13.2% (L929 RIPK3-/- reexpressing RIPK3 K51A; 50 µM, with: zVAD).

Study 3 — mode: agonist
Target: Beta-1 adrenergic receptor (ADRB1, Homo sapiens, UniProt P08588)
UniProt P08588, sequence (whole entry, looked up): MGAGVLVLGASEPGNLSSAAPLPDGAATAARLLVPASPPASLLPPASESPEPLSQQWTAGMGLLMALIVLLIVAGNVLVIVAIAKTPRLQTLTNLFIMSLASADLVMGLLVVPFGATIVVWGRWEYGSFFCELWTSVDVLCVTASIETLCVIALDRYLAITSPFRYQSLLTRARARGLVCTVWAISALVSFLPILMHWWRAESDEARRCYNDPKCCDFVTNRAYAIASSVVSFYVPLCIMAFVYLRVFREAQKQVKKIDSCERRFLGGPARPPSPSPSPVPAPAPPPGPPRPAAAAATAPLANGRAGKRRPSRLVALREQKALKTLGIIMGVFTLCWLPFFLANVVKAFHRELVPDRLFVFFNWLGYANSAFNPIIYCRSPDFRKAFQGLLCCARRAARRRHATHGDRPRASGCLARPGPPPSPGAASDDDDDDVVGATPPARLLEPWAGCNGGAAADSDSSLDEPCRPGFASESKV
With CC(Cc1ccccc1)NCCN1CCOCC1 (centres unmarked) the EC50 was ≥ 100 µM.
The EC50 of COc1ccccc1N1CCN(Cc2ccc(C#N)cc2)CC1 is reported as ≥ 100 µM.
COc1cc2c(cc1OCc1ccccc1)N(C(=O)c1cccc3[nH]ccc13)CC21CCN(C)CC1 has an EC50 of ≥ 100 µM.

Other studies, line by line
C[C@@]12N[C@@H](Cc3ccccc31)c1ccccc12 has a nuclei count of 1.88 z-score (mouse MPNST tumor cells; high-content nuclear imaging, measured: cell number; 10 µM, 12 h, mean of 2 replicates; reference: plate mean, higher = more cells).

A few entries again (study 2):
The survival was 13% and 13.3% and 11.4% and 13.2% (L929 RIPK3-/- reexpressing RIPK3 K51A; 50 µM, with: zVAD).
L929 RIPK3-/- reexpressing RIPK3 K51A/R69H; 50 µM, with: zVAD — survival: 25.1% and 23.4% and 27%.
